Measurements pooled from the literature.
Every numbered part comes from another study and shows a few of its results, in no order.
Chain of UniProt P37173 (whole entry, looked up): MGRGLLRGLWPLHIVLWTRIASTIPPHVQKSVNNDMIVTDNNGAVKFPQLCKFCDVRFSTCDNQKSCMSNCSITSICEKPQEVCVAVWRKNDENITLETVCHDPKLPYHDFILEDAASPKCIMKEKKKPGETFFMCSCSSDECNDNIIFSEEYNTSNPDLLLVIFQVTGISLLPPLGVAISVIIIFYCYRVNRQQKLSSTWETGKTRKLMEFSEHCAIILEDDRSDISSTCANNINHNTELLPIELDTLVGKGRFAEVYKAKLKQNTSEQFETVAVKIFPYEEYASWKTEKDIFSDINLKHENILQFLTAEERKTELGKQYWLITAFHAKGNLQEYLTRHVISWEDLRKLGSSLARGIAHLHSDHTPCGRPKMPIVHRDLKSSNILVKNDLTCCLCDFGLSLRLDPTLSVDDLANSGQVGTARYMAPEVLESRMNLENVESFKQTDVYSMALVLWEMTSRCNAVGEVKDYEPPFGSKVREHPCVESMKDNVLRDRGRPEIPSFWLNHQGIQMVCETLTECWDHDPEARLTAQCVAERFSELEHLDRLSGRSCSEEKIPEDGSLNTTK
Chain of UniProt P45984 (whole entry, looked up): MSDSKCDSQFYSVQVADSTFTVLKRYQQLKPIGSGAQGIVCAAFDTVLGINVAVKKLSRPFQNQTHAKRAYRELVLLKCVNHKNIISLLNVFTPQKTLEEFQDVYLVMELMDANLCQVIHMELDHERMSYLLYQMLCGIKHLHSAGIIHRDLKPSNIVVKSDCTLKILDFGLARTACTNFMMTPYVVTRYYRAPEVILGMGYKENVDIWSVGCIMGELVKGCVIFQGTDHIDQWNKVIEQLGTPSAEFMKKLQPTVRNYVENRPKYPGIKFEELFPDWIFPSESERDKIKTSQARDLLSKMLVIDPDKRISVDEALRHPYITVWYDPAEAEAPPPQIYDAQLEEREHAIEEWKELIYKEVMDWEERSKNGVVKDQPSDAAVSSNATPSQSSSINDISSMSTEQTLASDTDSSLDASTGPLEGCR
Chain of UniProt O95747 (whole entry, looked up): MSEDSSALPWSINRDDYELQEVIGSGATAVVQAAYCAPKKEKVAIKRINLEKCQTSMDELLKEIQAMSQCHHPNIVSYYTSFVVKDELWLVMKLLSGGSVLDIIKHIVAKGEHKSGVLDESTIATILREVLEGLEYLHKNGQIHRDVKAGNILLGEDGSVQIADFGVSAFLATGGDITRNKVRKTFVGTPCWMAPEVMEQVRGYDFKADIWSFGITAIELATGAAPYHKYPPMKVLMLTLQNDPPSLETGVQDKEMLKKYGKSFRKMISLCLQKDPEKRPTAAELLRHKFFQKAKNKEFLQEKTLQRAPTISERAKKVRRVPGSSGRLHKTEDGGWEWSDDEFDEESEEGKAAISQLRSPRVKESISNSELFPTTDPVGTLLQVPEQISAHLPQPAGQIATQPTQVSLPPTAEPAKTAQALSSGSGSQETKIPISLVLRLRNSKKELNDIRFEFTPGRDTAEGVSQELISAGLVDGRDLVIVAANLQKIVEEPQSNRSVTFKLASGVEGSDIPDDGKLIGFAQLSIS
Chain of UniProt Q6P2M8 (whole entry, looked up): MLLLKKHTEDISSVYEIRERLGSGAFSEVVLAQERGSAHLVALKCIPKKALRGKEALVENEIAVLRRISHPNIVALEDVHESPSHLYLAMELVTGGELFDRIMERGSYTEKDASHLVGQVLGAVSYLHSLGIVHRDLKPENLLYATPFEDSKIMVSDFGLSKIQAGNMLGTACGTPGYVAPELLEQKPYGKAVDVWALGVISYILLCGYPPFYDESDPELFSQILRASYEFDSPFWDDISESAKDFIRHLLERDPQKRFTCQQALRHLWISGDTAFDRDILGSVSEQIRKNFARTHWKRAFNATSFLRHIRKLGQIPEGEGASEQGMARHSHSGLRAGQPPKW
Chain of UniProt P53355 (whole entry, looked up): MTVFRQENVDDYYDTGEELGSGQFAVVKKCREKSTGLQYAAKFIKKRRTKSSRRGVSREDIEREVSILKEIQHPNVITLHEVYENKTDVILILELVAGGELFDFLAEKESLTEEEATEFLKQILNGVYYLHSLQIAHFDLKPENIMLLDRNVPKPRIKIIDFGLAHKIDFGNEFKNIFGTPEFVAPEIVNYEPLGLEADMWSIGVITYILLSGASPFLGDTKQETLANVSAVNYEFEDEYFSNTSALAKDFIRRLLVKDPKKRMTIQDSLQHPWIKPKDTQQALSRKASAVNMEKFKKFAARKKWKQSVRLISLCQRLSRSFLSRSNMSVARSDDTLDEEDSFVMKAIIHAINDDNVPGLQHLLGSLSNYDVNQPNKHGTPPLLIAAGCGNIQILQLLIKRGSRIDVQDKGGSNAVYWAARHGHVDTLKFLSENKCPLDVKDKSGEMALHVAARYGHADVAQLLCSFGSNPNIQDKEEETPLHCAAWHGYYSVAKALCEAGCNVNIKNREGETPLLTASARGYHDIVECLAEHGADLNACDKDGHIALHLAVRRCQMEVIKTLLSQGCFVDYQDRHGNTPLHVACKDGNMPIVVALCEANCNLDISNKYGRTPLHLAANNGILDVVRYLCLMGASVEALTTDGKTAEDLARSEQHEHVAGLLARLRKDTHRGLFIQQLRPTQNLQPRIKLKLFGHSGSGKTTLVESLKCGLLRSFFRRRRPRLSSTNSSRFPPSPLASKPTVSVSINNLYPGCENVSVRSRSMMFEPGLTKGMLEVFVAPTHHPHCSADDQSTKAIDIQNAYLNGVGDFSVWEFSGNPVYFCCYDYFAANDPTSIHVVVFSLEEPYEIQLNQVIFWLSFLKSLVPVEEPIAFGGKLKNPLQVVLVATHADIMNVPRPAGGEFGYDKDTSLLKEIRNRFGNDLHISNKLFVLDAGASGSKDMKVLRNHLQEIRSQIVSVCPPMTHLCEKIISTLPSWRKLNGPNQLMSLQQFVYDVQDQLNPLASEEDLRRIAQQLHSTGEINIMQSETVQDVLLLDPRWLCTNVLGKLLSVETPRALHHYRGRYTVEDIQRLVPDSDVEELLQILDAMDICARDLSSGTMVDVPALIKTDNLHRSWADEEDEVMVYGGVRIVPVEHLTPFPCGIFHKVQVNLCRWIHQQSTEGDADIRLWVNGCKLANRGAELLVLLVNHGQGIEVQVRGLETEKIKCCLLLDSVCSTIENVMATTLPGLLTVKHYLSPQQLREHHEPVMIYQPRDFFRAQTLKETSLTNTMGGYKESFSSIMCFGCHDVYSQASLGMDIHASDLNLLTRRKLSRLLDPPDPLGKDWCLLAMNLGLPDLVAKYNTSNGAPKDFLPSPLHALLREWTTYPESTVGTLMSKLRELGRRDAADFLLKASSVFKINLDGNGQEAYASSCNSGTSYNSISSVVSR
Chain of UniProt Q8TDX7 (whole entry, looked up): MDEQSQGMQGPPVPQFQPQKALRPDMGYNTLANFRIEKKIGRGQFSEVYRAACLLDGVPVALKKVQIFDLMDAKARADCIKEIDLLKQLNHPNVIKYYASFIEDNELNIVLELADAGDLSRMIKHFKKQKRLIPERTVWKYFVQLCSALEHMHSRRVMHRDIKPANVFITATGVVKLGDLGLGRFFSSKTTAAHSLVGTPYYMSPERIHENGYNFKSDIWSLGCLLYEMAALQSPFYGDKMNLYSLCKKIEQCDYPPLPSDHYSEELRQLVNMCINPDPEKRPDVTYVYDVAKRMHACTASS
Chain of UniProt Q14164 (whole entry, looked up): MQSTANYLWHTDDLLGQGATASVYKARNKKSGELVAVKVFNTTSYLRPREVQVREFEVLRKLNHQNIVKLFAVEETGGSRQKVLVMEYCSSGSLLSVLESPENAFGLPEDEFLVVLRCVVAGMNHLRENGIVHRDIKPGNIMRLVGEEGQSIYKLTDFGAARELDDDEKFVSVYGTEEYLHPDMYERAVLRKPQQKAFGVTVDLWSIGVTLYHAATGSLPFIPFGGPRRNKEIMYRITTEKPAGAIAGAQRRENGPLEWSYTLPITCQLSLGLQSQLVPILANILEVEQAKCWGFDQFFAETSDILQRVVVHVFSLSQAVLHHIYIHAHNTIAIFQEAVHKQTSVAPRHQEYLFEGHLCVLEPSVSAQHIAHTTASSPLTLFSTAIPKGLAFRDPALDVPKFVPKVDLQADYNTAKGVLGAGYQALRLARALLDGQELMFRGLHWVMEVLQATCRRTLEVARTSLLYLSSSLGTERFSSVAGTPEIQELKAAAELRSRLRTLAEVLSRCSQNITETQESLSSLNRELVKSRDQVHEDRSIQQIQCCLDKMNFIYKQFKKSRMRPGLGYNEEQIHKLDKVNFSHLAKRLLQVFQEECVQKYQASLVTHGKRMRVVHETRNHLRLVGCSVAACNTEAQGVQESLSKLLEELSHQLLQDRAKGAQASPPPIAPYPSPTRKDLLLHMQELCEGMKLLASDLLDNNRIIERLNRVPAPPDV

Study 1 — effect on: cell-free assay; technique: competition with immobilised ligand; tested at: 1 µM
Structure (SMILES): CCCCN(CCCC)C(=O)CN1C[C@@H](c2cc(OC)c3c(c2)OCO3)[C@H](C(=O)O)[C@H]1CC(C)(C)CCC
It gave 94.4% for remaining binding (Serine/threonine-protein kinase 4 (STK4, Homo sapiens, UniProt Q13043)).
Calcium/calmodulin-dependent protein kinase type 1 (CAMK1, Homo sapiens, UniProt Q14012) — remaining binding: 100%.
For Ribosomal protein S6 kinase alpha-4, N-terminal kinase domain (RPS6KA4, Homo sapiens, UniProt O75676): remaining binding read 100%.
For Dual specificity protein kinase CLK1 (CLK1, Homo sapiens, UniProt P49759): remaining binding read 100%.
For Leukocyte tyrosine kinase receptor (LTK, Homo sapiens, UniProt P29376): remaining binding read 94.1%.
It gave 86.6% for remaining binding (Serine/threonine-protein kinase Nek7 (NEK7, Homo sapiens, UniProt Q8TDX7)).
TGF-beta receptor type-2 (TGFBR2, Homo sapiens, UniProt P37173) — remaining binding: 98.6%.
The remaining binding was 86.7% (High affinity nerve growth factor receptor (NTRK1, Homo sapiens, UniProt P04629)).
It gave 65.9% for remaining binding (Leucine-rich repeat serine/threonine-protein kinase 2 (LRRK2, Homo sapiens, UniProt Q5S007)).
It gave 100% for remaining binding (Calcium/calmodulin-dependent protein kinase type 1B (PNCK, Homo sapiens, UniProt Q6P2M8)).
Tyrosine-protein kinase Fyn (FYN, Homo sapiens, UniProt P06241) — remaining binding: 99.1%.
The remaining binding was 100% (Mitogen-activated protein kinase 9 (MAPK9, Homo sapiens, UniProt P45984)).
It gave 100% for remaining binding (Tyrosine-protein kinase ABL1, phosphorylated (ABL1, Homo sapiens, UniProt P00519)).
The remaining binding was 89.2% (Serine/threonine-protein kinase ULK1 (ULK1, Homo sapiens, UniProt O75385)).
Receptor-type tyrosine-protein kinase FLT3 (FLT3, Homo sapiens, UniProt P36888, F691L/ITD) — remaining binding: 99.1%.
It gave 87.7% for remaining binding (Ephrin type-B receptor 6 (EPHB6, Homo sapiens, UniProt O15197)).

Study 2 — organism: Sarcocystis neurona; effect on: parasite growth; tested at: 10 µM; time: 96 h; notes: secondary screen
With `Nc1ccn([C@@H]2CS[C@H](CO)O2)c(=O)n1` the inhibition was -25.2%.
For `CC1=NS(=O)(=O)c2cc(Cl)ccc2N1`, the inhibition was -17.5%.
`CC(=O)OCC(=O)[C@@]12OC3(CCCC3)O[C@@H]1C[C@H]1[C@@H]3CCC4=CC(=O)C=C[C@]4(C)[C@@]3(F)[C@@H](O)C[C@@]12C` gave an inhibition of -15.1%.
The inhibition of `NC(=O)c1cccnc1` is reported as -28.2%.
`CC(C)(C)NC(=O)[C@@H]1CN(Cc2cccnc2)CCN1C[C@@H](O)C[C@@H](Cc1ccccc1)C(=O)N[C@H]1c2ccccc2C[C@H]1O` has an inhibition of -10.3%.
`CC(=O)CCCCn1c(=O)c2c(ncn2C)n(C)c1=O` gave an inhibition of -7.7%.
With `CCCNC(C)C(=O)Nc1ccccc1C` (centres unmarked) the inhibition was -10.8%.
`CN(C)CCc1c[nH]c2ccc(Cn3cncn3)cc12` has an inhibition of -27.3%.
With `CCCN1C[C@H](CSC)C[C@@H]2c3cccc4[nH]cc(c34)C[C@H]21` the inhibition was -20.3%.
The inhibition of `CCN1CCCC1CNC(=O)c1cc(S(=O)(=O)CC)c(N)cc1OC` (centres unmarked) is reported as -11.1%.
For `CCOC(=O)C1=C(COCCN)NC(C)=C(C(=O)OC)C1c1ccccc1Cl` (centres unmarked), the inhibition was -5.3%.

Study 3 — effect on: kinase activity; action: inhibitor; technique: ADP-Glo; time: 1 h
SMILES: CC[C@H](C)c1nc2cc(Nc3ccnc4ccc(S(=O)(=O)C(C)C)cc34)ccc2s1
Target: Receptor-interacting serine/threonine-protein kinase 3 (RIPK3, Homo sapiens, UniProt Q9Y572)
Chain of UniProt Q9Y572 (whole entry, looked up): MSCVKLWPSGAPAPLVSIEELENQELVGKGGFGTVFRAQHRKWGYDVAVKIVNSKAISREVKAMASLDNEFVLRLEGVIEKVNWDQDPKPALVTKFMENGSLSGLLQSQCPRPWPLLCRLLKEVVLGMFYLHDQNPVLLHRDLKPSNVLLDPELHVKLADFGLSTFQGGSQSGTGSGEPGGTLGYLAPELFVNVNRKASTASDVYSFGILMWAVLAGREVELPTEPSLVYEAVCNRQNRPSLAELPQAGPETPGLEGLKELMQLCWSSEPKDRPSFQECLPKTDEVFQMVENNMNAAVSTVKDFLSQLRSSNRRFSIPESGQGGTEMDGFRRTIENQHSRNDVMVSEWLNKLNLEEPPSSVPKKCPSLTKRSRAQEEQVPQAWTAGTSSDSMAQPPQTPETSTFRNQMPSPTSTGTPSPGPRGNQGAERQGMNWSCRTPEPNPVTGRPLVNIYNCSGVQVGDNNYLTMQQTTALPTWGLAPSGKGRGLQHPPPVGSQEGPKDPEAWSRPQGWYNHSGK
The inhibition was 105% (100 nM).
It gave 91.7% for inhibition (25 nM).
1.563 nM — inhibition: 26.8%.
50 nM — inhibition: 95.2%.
0.391 nM — inhibition: 26%.
The inhibition was 68.1% (12.5 nM).
For 6.25 nM: inhibition read 41.2%.

Study 4 — effect on: enzyme activity; action: inhibitor; tested at: 0.5 µM; baseline: control
Compound: N#CC(c1ccnc(NCCc2cccnc2)n1)c1nc2ccccc2s1 (centres unmarked)
It gave 99% for remaining activity (Serine/threonine-protein kinase OSR1 (OXSR1, Homo sapiens, UniProt O95747)).
It gave 102% for remaining activity (TGF-beta receptor type-2 (TGFBR2, Homo sapiens, UniProt P37173)).
The remaining activity was 90.3% (Inhibitor of nuclear factor kappa-B kinase subunit epsilon (IKBKE, Homo sapiens, UniProt Q14164)).
It gave 87.8% for remaining activity (Serine/threonine-protein kinase Nek2 (NEK2, Homo sapiens, UniProt P51955)).
The remaining activity was 86.3% (Serine/threonine-protein kinase 10 (STK10, Homo sapiens, UniProt O94804)).
It gave 99.1% for remaining activity (G protein-coupled receptor kinase 3 (GRK3, Homo sapiens, UniProt P35626)).
For Death-associated protein kinase 2 (DAPK2, Homo sapiens, UniProt Q9UIK4): remaining activity read 119%.
It gave 90.4% for remaining activity (Cyclin-dependent kinase 4, with cyclin D1 (CDK4, Homo sapiens, UniProt P11802)).
For STE20/SPS1-related proline-alanine-rich protein kinase (STK39, Homo sapiens, UniProt Q9UEW8): remaining activity read 96.9%.
For Tyrosine-protein kinase Lyn, isoform B (LYN, Homo sapiens, UniProt P07948): remaining activity read 96.2%.
Serine/threonine-protein kinase STK11 (STK11, Homo sapiens, UniProt Q15831) — remaining activity: 79.4%.
For cGMP-dependent protein kinase 1, isoform beta (PRKG1, Homo sapiens, UniProt Q13976): remaining activity read 99.4%.
Cyclin-dependent kinase 5, with p25 (CDK5, Homo sapiens, UniProt Q00535) — remaining activity: 90%.
The remaining activity was 93.9% (Serine/threonine-protein kinase Chk2 (CHEK2, Homo sapiens, UniProt O96017)).
Protein kinase C beta type, isoform beta-I (PRKCB, Homo sapiens, UniProt P05771) — remaining activity: 90.8%.
It gave 99.3% for remaining activity (Death-associated protein kinase 1 (DAPK1, Homo sapiens, UniProt P53355)).
Calcium/calmodulin-dependent protein kinase kinase 2 (CAMKK2, Homo sapiens, UniProt Q96RR4) — remaining activity: 80.4%.
cAMP-dependent protein kinase catalytic subunit alpha (PRKACA, Homo sapiens, UniProt P17612) — remaining activity: 103%.
Mitogen-activated protein kinase 9 (MAPK9, Homo sapiens, UniProt P45984) — remaining activity: 67.5%.
It gave 94.3% for remaining activity (Protein kinase C alpha type (PRKCA, Homo sapiens, UniProt P17252)).
Calcium/calmodulin-dependent protein kinase type II subunit delta (CAMK2D, Homo sapiens, UniProt Q13557) — remaining activity: 89.3%.
For TGF-beta receptor type-1 (TGFBR1, Homo sapiens, UniProt P36897): remaining activity read 97.8%.

For quick reference, copied from above (study 1):
Tyrosine-protein kinase Fyn (FYN, Homo sapiens, UniProt P06241) — remaining binding: 99.1%.
TGF-beta receptor type-2 (TGFBR2, Homo sapiens, UniProt P37173) — remaining binding: 98.6%.
The remaining binding was 86.7% (High affinity nerve growth factor receptor (NTRK1, Homo sapiens, UniProt P04629)).
Receptor-type tyrosine-protein kinase FLT3 (FLT3, Homo sapiens, UniProt P36888, F691L/ITD) — remaining binding: 99.1%.
It gave 86.6% for remaining binding (Serine/threonine-protein kinase Nek7 (NEK7, Homo sapiens, UniProt Q8TDX7)).
For Dual specificity protein kinase CLK1 (CLK1, Homo sapiens, UniProt P49759): remaining binding read 100%.
For Leukocyte tyrosine kinase receptor (LTK, Homo sapiens, UniProt P29376): remaining binding read 94.1%.
